Measured values gathered from unrelated publications.
Numbered parts are unrelated; each lists some results of a single study.
Chain of UniProt Q9Y5N1 (whole entry, looked up): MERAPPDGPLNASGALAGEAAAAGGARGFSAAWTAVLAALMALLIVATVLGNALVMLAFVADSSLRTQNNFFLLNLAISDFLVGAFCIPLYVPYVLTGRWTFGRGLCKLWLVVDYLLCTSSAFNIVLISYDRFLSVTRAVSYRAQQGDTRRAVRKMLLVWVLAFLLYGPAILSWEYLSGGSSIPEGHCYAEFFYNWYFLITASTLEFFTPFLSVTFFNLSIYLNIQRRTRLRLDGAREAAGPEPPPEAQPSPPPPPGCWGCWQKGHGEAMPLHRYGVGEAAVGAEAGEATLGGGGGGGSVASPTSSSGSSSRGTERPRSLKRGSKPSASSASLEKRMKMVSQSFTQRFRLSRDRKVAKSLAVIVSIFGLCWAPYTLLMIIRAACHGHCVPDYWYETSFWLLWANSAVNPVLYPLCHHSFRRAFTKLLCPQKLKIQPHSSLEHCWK
Chain of UniProt P07550 (whole entry, looked up): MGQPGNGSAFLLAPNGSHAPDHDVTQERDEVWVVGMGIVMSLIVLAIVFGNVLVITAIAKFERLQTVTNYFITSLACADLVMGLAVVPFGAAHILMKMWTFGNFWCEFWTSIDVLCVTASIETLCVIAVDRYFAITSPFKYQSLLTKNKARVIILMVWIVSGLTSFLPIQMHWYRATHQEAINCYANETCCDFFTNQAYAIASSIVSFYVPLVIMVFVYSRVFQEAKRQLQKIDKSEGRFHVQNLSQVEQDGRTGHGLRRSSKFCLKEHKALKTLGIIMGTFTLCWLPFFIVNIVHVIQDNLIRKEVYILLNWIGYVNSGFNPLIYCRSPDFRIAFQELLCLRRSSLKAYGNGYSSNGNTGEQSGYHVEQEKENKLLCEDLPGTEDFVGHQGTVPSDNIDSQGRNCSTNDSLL
Chain of UniProt P14416 (whole entry, looked up): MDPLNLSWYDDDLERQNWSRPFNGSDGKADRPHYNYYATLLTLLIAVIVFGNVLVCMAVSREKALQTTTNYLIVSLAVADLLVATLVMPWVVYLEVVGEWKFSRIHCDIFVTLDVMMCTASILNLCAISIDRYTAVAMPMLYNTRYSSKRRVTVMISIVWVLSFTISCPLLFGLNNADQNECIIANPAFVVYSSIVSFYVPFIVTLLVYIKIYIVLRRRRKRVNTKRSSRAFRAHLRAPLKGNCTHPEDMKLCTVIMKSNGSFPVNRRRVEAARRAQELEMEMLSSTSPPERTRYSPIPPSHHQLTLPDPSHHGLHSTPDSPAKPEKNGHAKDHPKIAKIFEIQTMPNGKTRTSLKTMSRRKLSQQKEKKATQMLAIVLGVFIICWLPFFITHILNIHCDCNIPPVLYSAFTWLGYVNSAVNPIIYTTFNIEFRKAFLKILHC
Chain of UniProt P50406 (whole entry, looked up): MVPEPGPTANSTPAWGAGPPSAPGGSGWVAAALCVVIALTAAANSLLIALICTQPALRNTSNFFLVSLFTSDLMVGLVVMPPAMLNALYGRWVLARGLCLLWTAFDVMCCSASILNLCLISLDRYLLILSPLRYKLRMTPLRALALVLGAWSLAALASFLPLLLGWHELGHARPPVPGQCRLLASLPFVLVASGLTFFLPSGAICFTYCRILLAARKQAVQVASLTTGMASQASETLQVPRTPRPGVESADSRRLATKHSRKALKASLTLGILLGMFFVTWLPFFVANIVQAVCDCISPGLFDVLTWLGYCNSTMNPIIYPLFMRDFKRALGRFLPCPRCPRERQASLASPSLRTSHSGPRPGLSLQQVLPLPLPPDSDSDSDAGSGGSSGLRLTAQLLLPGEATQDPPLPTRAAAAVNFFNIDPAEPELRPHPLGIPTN
Chain of UniProt Q5BJF2 (whole entry, looked up): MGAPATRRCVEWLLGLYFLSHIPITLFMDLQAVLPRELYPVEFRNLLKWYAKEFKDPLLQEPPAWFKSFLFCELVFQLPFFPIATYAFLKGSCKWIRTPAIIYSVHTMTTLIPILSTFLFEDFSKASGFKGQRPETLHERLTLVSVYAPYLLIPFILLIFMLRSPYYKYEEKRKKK
Chain of UniProt P21917 (whole entry, looked up): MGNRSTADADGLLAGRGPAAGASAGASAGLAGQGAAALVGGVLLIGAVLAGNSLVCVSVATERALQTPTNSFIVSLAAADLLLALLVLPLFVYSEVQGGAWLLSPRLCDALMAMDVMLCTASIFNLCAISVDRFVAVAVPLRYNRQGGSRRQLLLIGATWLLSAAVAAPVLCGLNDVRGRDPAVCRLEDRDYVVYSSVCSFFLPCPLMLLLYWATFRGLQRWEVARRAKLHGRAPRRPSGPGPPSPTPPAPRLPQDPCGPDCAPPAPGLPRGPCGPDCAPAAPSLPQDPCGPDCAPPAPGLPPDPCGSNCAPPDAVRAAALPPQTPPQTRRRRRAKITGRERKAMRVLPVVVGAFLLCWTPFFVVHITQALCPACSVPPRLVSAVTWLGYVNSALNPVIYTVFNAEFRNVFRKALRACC
Chain of UniProt P35348 (whole entry, looked up): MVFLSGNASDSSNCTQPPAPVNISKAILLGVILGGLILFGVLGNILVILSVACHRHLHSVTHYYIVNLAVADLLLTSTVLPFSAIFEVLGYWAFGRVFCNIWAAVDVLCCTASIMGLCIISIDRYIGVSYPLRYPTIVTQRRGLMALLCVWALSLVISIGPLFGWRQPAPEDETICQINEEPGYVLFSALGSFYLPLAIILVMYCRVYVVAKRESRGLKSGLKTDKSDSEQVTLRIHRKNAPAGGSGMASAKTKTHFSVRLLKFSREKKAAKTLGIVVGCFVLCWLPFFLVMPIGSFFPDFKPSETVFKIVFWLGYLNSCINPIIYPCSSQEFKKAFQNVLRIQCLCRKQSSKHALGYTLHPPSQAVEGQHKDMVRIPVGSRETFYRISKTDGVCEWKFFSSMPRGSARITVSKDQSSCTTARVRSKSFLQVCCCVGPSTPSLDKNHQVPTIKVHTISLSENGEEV
Chain of UniProt P08588 (whole entry, looked up): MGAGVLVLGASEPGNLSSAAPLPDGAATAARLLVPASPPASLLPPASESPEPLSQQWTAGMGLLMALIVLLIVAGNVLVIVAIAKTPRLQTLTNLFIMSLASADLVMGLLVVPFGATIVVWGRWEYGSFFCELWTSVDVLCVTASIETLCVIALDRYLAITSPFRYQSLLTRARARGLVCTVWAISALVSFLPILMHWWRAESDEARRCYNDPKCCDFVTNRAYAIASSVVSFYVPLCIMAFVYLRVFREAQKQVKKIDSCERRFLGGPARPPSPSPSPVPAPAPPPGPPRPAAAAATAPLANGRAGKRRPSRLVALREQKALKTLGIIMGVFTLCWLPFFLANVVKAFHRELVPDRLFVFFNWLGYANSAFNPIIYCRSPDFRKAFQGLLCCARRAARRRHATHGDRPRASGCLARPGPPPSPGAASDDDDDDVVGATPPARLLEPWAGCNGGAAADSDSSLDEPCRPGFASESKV
Chain of UniProt P08913 (whole entry, looked up): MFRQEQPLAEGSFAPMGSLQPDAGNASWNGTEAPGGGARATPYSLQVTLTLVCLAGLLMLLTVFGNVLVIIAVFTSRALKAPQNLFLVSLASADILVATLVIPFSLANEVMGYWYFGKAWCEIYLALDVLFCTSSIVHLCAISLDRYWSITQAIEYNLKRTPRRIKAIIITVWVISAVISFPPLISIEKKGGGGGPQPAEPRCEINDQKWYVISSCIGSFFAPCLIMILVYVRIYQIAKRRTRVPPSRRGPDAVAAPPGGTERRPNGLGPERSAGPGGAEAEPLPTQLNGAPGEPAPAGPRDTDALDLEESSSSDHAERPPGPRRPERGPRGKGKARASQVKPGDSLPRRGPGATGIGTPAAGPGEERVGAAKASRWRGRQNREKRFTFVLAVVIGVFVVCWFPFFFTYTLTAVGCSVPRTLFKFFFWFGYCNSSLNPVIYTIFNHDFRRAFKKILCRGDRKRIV
Chain of UniProt Q99720 (whole entry, looked up): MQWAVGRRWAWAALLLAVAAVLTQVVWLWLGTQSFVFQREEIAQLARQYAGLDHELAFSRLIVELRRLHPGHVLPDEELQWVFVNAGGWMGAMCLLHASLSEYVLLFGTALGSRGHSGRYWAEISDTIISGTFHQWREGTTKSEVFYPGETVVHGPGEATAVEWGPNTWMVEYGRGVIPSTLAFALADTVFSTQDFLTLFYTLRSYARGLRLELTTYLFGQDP
Chain of UniProt P35462 (whole entry, looked up): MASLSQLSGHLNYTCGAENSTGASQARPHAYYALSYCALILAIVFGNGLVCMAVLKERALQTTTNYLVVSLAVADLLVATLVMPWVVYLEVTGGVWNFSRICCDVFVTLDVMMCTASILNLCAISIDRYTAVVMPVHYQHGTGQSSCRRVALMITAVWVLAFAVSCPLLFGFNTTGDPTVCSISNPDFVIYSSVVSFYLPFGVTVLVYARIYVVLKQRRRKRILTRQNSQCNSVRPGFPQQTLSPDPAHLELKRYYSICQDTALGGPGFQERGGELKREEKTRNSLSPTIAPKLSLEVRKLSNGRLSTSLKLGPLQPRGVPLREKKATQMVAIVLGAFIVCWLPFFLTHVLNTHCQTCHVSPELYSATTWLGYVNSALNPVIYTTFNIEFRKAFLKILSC

Study 1 — observed: binding; method: radioligand binding; concentration: 10 µM
Structure (SMILES): CCCCN(CCCC)C(=O)CN1C[C@@H](c2cc(OC)c3c(c2)OCO3)[C@H](C(=O)O)[C@H]1CC(C)(C)CCC
The inhibition was 19.1% (ADRA2A (Homo sapiens, UniProt P08913)).
The inhibition was 23.3% (ADRA1A (Homo sapiens, UniProt P35348)).
The inhibition was 93.6% (SIGMAR1 (Homo sapiens, UniProt Q99720)).
It gave 87.1% for inhibition (DRD4 (Homo sapiens, UniProt P21917)).
The inhibition was 17% (HRH3 (Homo sapiens, UniProt Q9Y5N1)).
For ADRB2 (Homo sapiens, UniProt P07550): inhibition read -6.31%.
It gave 16.6% for inhibition (DRD3 (Homo sapiens, UniProt P35462)).
For TMEM97 (Homo sapiens, UniProt Q5BJF2): inhibition read 41.3%.
DRD2 (Homo sapiens, UniProt P14416) — inhibition: 21.3%.
The inhibition was -10.8% (ADRB1 (Homo sapiens, UniProt P08588)).
For HTR6 (Homo sapiens, UniProt P50406): inhibition read 33.5%.

Study 2 — species: human; sample: microsomes or S9; concentration: 2 µM; time: 0.5 h
The remaining compound of `N#Cc1ccnc(-n2cnc(Br)n2)c1` is reported as 67.3%.
With `CN(C(=O)CN(c1ccc(Cl)c(Cl)c1)S(C)(=O)=O)C(CN1CCCC1)c1ccc(-c2ccnc(Cl)c2)cc1` (stereo not drawn) the remaining compound was 31.2%.
The remaining compound of `COc1c(F)ccc(-c2cn([C@@H](CC(C)C)C(N)=O)nn2)c1F` is reported as 38.8%.
The remaining compound of `CCC(CN1CCCC1)n1cncc1-c1cnc(N2CCC(C)CC2)nc1` (stereo not drawn) is reported as 74.4%.
For `CCC(=O)CC(=O)Nc1cccc(Cl)c1Cl`, the remaining compound was 14%.
`O=C(CCCSc1ccc(NC(=O)C2CC2)nn1)Nc1cnc2ccccc2c1` gave a remaining compound of greater than 99%.
The remaining compound of `COc1ccc(/C=C/c2cc(OC(C)=O)cc(OC3OC(COC(C)=O)C(OC(C)=O)C(OC(C)=O)C3OC(C)=O)c2)cc1OC(C)=O` (stereo not drawn) is reported as 0.749%.
`Cc1ccc2c(-n3ccnc3)c(-c3ccc(Cl)cc3Cl)c([S+](C)[O-])nc2c1` (stereo not drawn) gave a remaining compound of 66.9%.
`Cc1cc(C)nc(N2CCN(c3ccccn3)CC2)n1` has a remaining compound of 26.7%.
`Cc1nc(C(=O)NC(C)C(C)(C)C)c2n1CCCC2` (stereo not drawn) gave a remaining compound of 71.7%.
The remaining compound of `O=c1c2cc3c(=O)n(C4CCCC4)ccc3nc2ccn1-c1ncn[nH]1` is reported as greater than 99%.
With `CC(C)CCN(C)c1ccc(C=Nn2cnnc2)cc1` the remaining compound was 80%.
`COc1ccc(N2C(=O)CCc3c(-c4ccccc4)cc(N(C)C)cc32)cc1` has a remaining compound of 16.2%.

Study 3 — cell line: Huh-7; concentration: 10 µM; time: 24 h
For `c1ccc2[nH]c(-c3cscn3)nc2c1`, the viability was 101%.
The viability of `C=C[C@@]1(C)CC(=O)[C@]2(O)[C@@]3(C)[C@@H](O)CCC(C)(C)[C@@H]3[C@H](O)[C@H](OC(C)=O)[C@@]2(C)O1` is reported as 90.5%.
`C[C@](N)(Cc1ccc(O)cc1)C(=O)O` has a viability of 101%.
For `C[C@H]1[C@H](NC(=O)/C(=N\OC(C)(C)C(=O)O)c2csc(N)n2)C(=O)N1S(=O)(=O)O`, the viability was 96.9%.
`OC(CCN1CCCCC1)(c1ccccc1)C1CCCCC1` (stereo not drawn) has a viability of 99.6%.
`CN(C(=O)CN(CCO)CC(=O)N(C)C(C)(C)Cc1ccccc1)C(C)(C)Cc1ccccc1` gave a viability of 81.8%.
For `Nc1ccc(S(=O)(=O)c2ccc(N)cc2)cc1`, the viability was 104%.
The viability of `COc1cc(NS(C)(=O)=O)ccc1Nc1c2ccccc2nc2ccccc12` is reported as 48.3%.
For `Cc1nc(C)c(Cl)c(O)c1Cl`, the viability was 96.5%.
The viability of `COc1ccc2cc(CCC(C)=O)ccc2c1` is reported as 101%.
`CC(C)NCC(O)c1ccc(O)c(O)c1` (stereo not drawn) gave a viability of 101%.
For `CO/N=C(\C(=O)N[C@@H]1C(=O)N2C(C(=O)O)=C(COC(N)=O)CS[C@H]12)c1ccco1`, the viability was 100%.
For `COC(=O)N/N=C/c1c[n+]([O-])c2ccccc2[n+]1[O-]`, the viability was 87.9%.
With `NCCS(=O)(=O)O` the viability was 105%.
For `CCCN1C[C@H](CSC)C[C@@H]2c3cccc4[nH]cc(c34)C[C@H]21`, the viability was 97.8%.
`C#C[C@]1(OC(C)=O)CC[C@H]2[C@@H]3CCC4=C[C@@H](OC(C)=O)CC[C@@H]4[C@H]3CC[C@@]21C` has a viability of 97.4%.
With `Cc1cccc(CN2CCN(C(c3ccccc3)c3ccc(Cl)cc3)CC2)c1` (stereo not drawn) the viability was 85.8%.
With `Cc1ccc(C(=O)c2ccc(CC(=O)O)n2C)cc1` the viability was 103%.
`CC(=O)NO` has a viability of 100%.

Study 4 — observed: enzyme activity; mode: inhibitor; concentration: 0.5 µM; baseline: control
Target: Calcium/calmodulin-dependent protein kinase type II subunit gamma (CAMK2G, Homo sapiens, UniProt Q13555)
Chain of UniProt Q13555 (whole entry, looked up): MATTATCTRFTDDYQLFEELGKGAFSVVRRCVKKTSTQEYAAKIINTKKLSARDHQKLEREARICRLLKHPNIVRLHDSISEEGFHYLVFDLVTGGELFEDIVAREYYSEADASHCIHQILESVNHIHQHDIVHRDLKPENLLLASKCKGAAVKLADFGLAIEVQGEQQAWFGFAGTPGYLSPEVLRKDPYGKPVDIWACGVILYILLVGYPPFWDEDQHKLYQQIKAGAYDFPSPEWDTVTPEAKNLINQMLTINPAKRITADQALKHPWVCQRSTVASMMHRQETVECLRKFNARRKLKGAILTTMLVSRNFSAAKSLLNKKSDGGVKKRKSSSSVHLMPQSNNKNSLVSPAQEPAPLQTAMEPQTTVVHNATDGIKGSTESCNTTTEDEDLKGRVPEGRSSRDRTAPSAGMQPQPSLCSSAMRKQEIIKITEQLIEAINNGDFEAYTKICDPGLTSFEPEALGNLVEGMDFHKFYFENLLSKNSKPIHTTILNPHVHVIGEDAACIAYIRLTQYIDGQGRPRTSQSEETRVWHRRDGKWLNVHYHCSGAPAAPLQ
`N#C/C(=C(/N)SC1C=CC=CC1)c1cccc(C(O)c2ccncc2)c1` (stereo not drawn) gave a remaining activity of 111%.
`O=Nc1c(-c2c(O)[nH]c3ccccc23)[nH]c2ccccc12` has a remaining activity of 69.8%.
With `N#CC(c1ccnc(NCCc2cccnc2)n1)c1nc2ccccc2s1` (stereo not drawn) the remaining activity was 111%.
For `O=C1NC(=O)/C(=C/c2ccc3c(c2)OC(F)(F)O3)S1`, the remaining activity was 102%.
`CNc1cc2c(Nc3cccc(Br)c3)ncnc2cn1` has a remaining activity of 105%.
The remaining activity of `CCCCc1c(-c2ccc(O)cc2)[nH]c2nccnc12` is reported as 101%.
The remaining activity of `CC(C)(C)c1nc2c3cc[nH]c(=O)c3c3cc(F)ccc3c2[nH]1` is reported as 72.8%.
`NC(=O)c1cccc(-c2cc(Nc3ccc(OC(F)(F)F)cc3)ncn2)c1` has a remaining activity of 102%.
The remaining activity of `C[C@@H](N)[C@H]1CC[C@H](C(=O)Nc2ccncc2)CC1` is reported as 101%.
The remaining activity of `O=C(O)/C=C/c1cc(Br)c(Br)c(Br)c1Br` is reported as 104%.
`FC(F)(F)c1ccc(/C=C/c2nc(COc3ccc(CCCCn4ccnn4)cc3)co2)cc1` gave a remaining activity of 99%.
With `COc1cc2c(Nc3ccc(Br)cc3F)ncnc2cc1OCC1CCN(C)CC1` the remaining activity was 112%.
`Nc1nc(Nc2ccc(S(N)(=O)=O)cc2)nn1C(=S)Nc1c(F)cccc1F` gave a remaining activity of 15.6%.
`COc1cc2c(N3CCN(C(=O)Nc4ccc(OC(C)C)cc4)CC3)ncnc2cc1OCCCN1CCCCC1` has a remaining activity of 101%.
`CC(C)n1cnc2c(Nc3cccc(Cl)c3)nc(NCCO)nc21` has a remaining activity of 106%.
The remaining activity of `O=C(c1ccccc1)c1ccc(N2CCOCC2)cc1O` is reported as 94%.
The remaining activity of `CCN(CC)CCCCN1c2ccccc2Oc2ccc(Cl)cc21` is reported as 104%.
For `Clc1ccc(Nc2nnc(Cc3ccncc3)c3ccccc23)cc1`, the remaining activity was 115%.
`CC(C)N(CCC(=O)c1ccc2ccccc2c1)Cc1ccccc1` gave a remaining activity of 97.7%.
The remaining activity of `O=c1c(-c2ccc(F)cc2)c(-c2ccncc2)[nH]n1-c1ccc(Cl)cc1` is reported as 109%.
`NC(=O)c1ccc(-c2nc(-c3ccc4c(c3)OCCO4)c(-c3ccccn3)[nH]2)cc1` has a remaining activity of 97.4%.
With `O=C1c2ccccc2-c2nc3nnnn3nc21` the remaining activity was 91.1%.
`c1cc(-c2cnn3cc(-c4ccc(OCCN5CCCCC5)cc4)cnc23)ccn1` gave a remaining activity of 74.8%.
